Experimental data collected from several papers.
Numbered parts are unrelated; each lists some results of a single study. Substitutions count along the parent as printed.

Series 1 — method: protein binding microarray; form: double-stranded DNA, one strand shown; medium: in vitro; concentration: not given; baseline: not given; reading: higher = stronger binding
Target: Histone acetyltransferase KAT6A, winged helix 1, GST fusion (KAT6A, Homo sapiens, UniProt Q92794, residues 1-85)
Notes: 8-mer, flanks averaged, mean of 2 arrays, mostly near background
Target sequence (chain): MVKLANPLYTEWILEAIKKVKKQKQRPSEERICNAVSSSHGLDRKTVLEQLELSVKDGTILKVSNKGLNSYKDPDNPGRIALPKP
For `ACGATTGG`, the E-score was -0.116.
For `CCAATTGG`, the E-score was -0.187.
`AACCGGAT` gave an E-score of 0.0664.
`GAAAGTGA` gave an E-score of -0.257.
`CCGGGAGA` has an E-score of 0.225.
The E-score of `CCGTTCAG` is reported as 0.156.
For `AGGACATC`, the E-score was 0.0649.
`AAGATCTC` has an E-score of -0.144.
`AAGGAACC` has an E-score of -0.0237.
With `CTCGCTCA` the E-score was 0.0618.
The E-score of `CTGCCGAC` is reported as 0.21.
For `TACACGAA`, the E-score was -0.00486.
`CGATCTAA` has an E-score of -0.218.
With `TATGAGGA` the E-score was -0.294.
`CTCGACAG` has an E-score of -0.241.
The E-score of `ATGCAAAA` is reported as -0.22.
`ACTCCAGG` gave an E-score of -0.0581.
For `GGGCGAGA`, the E-score was -0.0393.
`ATCTTATC` has an E-score of -0.161.
With `AGTGTCTA` the E-score was -0.242.
The E-score of `CTTATGGA` is reported as -0.101.
The E-score of `CGTCTTAA` is reported as 0.0338.
With `ACGACCCC` the E-score was 0.0823.
`GATGGCAA` gave an E-score of -0.0525.
For `CCGTTCCA`, the E-score was 0.179.

Series 2 — target: JUNB, bZIP domain (human); method: DHFR protein complementation; medium: yeast; baseline: wild-type JUN-FOS pair; reading: higher = stronger binding
Notes: single substitutions, most at no-binding floor
Starting sequence: JUN, bZIP domain (human); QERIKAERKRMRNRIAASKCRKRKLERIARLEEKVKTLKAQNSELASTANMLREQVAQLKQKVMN; partner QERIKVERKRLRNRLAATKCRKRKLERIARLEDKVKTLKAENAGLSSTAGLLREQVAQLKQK
With `L38N` the binding fitness was -1.52 natural log.
The binding fitness of `T48I` is reported as -1.08 natural log.
The binding fitness of `Q55G` is reported as -1.48 natural log.
With `N42T` the binding fitness was -1.5 natural log.
With `L38H` the binding fitness was -1.45 natural log.
`Q55W` gave a binding fitness of -1.54 natural log.
`M51D` gave a binding fitness of -0.906 natural log.
`E32D` has a binding fitness of -1.44 natural log.
`M51H` has a binding fitness of -1.34 natural log.
With `S47C` the binding fitness was -1.12 natural log.
`L45E` gave a binding fitness of -1.63 natural log.
The binding fitness of `R30N` is reported as -1.23 natural log.
With `K36H` the binding fitness was -1.38 natural log.
For `K36Q`, the binding fitness was -1.19 natural log.
The binding fitness of `Q41H` is reported as -1.26 natural log.

Series 3 — method: RNA Bind-n-Seq; form: RNA; medium: in vitro; concentration: 200 nM; notes: whole 134-nt RNA, ends assumed; added: 150 mM KCl; baseline: input library; reading: higher = stronger binding
Target: Fragile X messenger ribonucleoprotein 1, C-terminal low-complexity region (Fmr1, Mus musculus, UniProt P35922)
Shared flanks, not repeated: GGGAGUUCUACAGUCCGACGAUC … UGGAAUUCUCGGGUGUCAAGG
With `UCAAGUCCUGUGCUACACAUCGUAUGUACCGAAUCGGGGUUGGUUGGGGUUGGGAAAGUAUUAUGUUACGCCGUUCGGAUCUGCACUUCC` the log2 enrichment was 0.889.
With `CCUGUGCUACACAUCGUAUGUACCGAAUCGGGGCCCCCCGGCCCCCCGGGCCCCCCGGGGAAAGUAUUAUGUUACGCCGUUCGGAUCUGC` the log2 enrichment was -0.357.
With `UCAAGUCCUGUGCUACACAUCGUAUGUACCGAAUCGGGCCCGGGCCCGGGCCCGGAAAGUAUUAUGUUACGCCGUUCGGAUCUGCACUUC` the log2 enrichment was -0.483.
The log2 enrichment of `UGGGAGGUGGAUUUUGUUUAUUUUUUUAGCUCAUUUCCAGGGGUGGGAAUUUUUUCUUAAUAUGUGUCAUGAAUAAAGUUGUUUUUGAAA` is reported as 0.227.
The log2 enrichment of `UUCCUCAAGUCCUGUGCUACACAUCGUAUGUACCGAAUCGGAGGGAGGAGGAAAGUAUUAUGUUACGCCGUUCGGAUCUGCACUUCCAGC` is reported as -0.596.
With `CCUGUGCUACACAUCGUAUGUACCGAAUCGGGGUUUUUUUGGGGAAAAAAAGGGGAGGGGAAAGUAUUAUGUUACGCCGUUCGGAUCUGC` the log2 enrichment was 0.157.
For `ACCAUGCAGGUGGGCAUCUUUGGGAAGUGGGGCAAGGGGGGGAUAGGGAGGGGGGUAACACUUAGGGAACAGGUGGUCCCAGGUCGUUUC`, the log2 enrichment was 0.701.
`UUCUCUUCACUCCCACCAGUGCGGGUGGUCUUUGCAGUGACUAUGGAAGGCAGUGCACGGAAAGUCAUCACUGUCCGGUCAGCCCUCAUU` gave a log2 enrichment of -0.526.
The log2 enrichment of `UCAAGUCCUGUGCUACACAUCGUAUGUACCGAAUCGGGUUUGGGUUUGGUUUGGAAAGUAUUAUGUUACGCCGUUCGGAUCUGCACUUCC` is reported as -0.245.
For `CAAGUCCUGUGCUACACAUCGUAUGUACCGAAUCGGGAAAAGGAAAAGGAAAAGGGAAAGUAUUAUGUUACGCCGUUCGGAUCUGCACUU`, the log2 enrichment was -0.766.

Series 4 — method: DHFR PCA, deep sequencing; medium: yeast; added: (+)-ABA 200 µM; baseline: wild-type fitted maximum; reading: higher = stronger binding
Target: ABI1, truncated, D143A, DHFR fusion (Arabidopsis thaliana)
Notes: methotrexate growth selection, single substitutions
Starting sequence: PYL1, truncated, DHFR fusion (Arabidopsis thaliana); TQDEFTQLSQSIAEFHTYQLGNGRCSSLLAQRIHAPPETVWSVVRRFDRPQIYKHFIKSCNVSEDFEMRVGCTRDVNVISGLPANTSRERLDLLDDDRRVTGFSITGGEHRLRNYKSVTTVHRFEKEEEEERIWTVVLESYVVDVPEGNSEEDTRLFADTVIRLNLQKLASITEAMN
For `T17R`, “relative binding score” read 91.4%.
`E128A`: “relative binding score” 103%.
`P50C`: “relative binding score” 62%.
`R99C`: “relative binding score” 93.4%.
`F103P` — result for “relative binding score”: 1.56%.
`A158S` — result for “relative binding score”: 78.4%.
Under “relative binding score”, `T1D` is recorded as 98%.
`D75V`: “relative binding score” 108%.
For `S63M`, “relative binding score” read 94.8%.
`D95F` — result for “relative binding score”: 55.7%.
For `L112E`, “relative binding score” read -10.3%.
For `L8N`, “relative binding score” read 88.5%.
`V143L`: “relative binding score” 70.6%.
For `Q7A`, “relative binding score” read 100%.

Series 5 — target: CCNE2, cyclin fold, Cln2 fusion (human); method: yeast growth competition, sequencing; medium: yeast; notes: strong parent motif; baseline: not given; reading: higher = stronger binding
Starting sequence: CDKN1A docking peptide (human); SKACRRLFGPVDS
For `SKACRRLFRPVDS [G9R]`, “normalised enrichment score” read 2.28.
For `SKACRRLFGPVAS [D12A]`, “normalised enrichment score” read 2.91.
For `SKACRRLHGPVDS [F8H]`, “normalised enrichment score” read 0.0926.
`SKACRRLFGPVSS [D12S]`: “normalised enrichment score” 2.75.
For `STACRRLFGPVDS [K2T]`, “normalised enrichment score” read 3.96.
For `SKACRRLQGPVDS [F8Q]`, “normalised enrichment score” read 0.195.
`SKACRRLRGPVDS [F8R]`: “normalised enrichment score” 0.407.
For `SKACRRLFGLVDS [P10L]`, “normalised enrichment score” read 2.2.
For `SKACARLFGPVDS [R5A]`, “normalised enrichment score” read 0.275.
`SKACRRIFGPVDS [L7I]`: “normalised enrichment score” 0.882.
`SKACRRYFGPVDS [L7Y]`: “normalised enrichment score” 0.409.

Series 6 — method: RNA Bind-n-Seq; form: RNA; medium: in vitro; concentration: 365 nM; baseline: no-protein control; reading: higher = stronger binding
Target: RNA binding protein fox-1 homolog 2, RRM domain, GST-SBP tag (RBFOX2, Homo sapiens, UniProt O43251-10, residues 100-194)
Notes: natural RNA segment, single round, ends assumed
Shared flanks, not repeated: GGGAGUUCUACAGUCCGACGAUC … UGGAAUUCUCGGGUGCCAA
Target sequence (chain): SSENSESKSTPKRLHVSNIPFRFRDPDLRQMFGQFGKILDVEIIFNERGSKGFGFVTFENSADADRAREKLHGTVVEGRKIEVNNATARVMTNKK
`CCUGUUCGGCCUCCUGUCUAUCAGUGAGGCAUCUCUGACUGUUUCUUCUACUGCUUUUCAGUUCCCUUCCCUGCUGUUCUAUUUCCUUUGAGUGUAAAGACUCACAGGUG` — result for “RBNS enrichment (R)”: 0.31.
`CUUCAUUAGAGCUAUCAAUACUGAGUGGCUAGAACUCCAGGGACUGUGUGGGUUGCUCUGUUUUCUUACUGGAAUGCCUUCUCCGGAACUGUUGCGGUUUCAUUCUCUGU` — result for “RBNS enrichment (R)”: 1.07.
Under “RBNS enrichment (R)”, `UGGAGUUCCUAUCCCCUUUGAGGCUUACAAUCUUUCCUCCUUUUCUUCCAUAAGAGUUCCCAAGCUCUGUCCACUGUUUGGCUAUGGGUGUCUCUGUCUGAGUUAGCUGC` is recorded as 0.693.
`UGCCCUGUACCCUUGCCUCUUCCCAGUGAUAGUGGGCAUAUCCACCUCACCAAGAUAAUUCUGUACAGUGACUAGCAGAUCCUGGCCUAGGGUGGCUCAGCCGGUGUUUU` — result for “RBNS enrichment (R)”: 0.344.
`UCUGAGGAUUACAGCUCUGCCCAGGCCCUUUCUACUUUCCCUGCCUGCCUCCCUCCCCCUGCUAGAAGUAGUUUCUGAUUUCCCUGAAUGAAAGAUAGUGAUCUUUUAGG`: “RBNS enrichment (R)” 1.56.
`UCCCACCUUGGAGCAUUUAUGUAGACAUUGUAAAUAAAUUUUGUGCAAAAAGGACUGGAAAAAUGAACUGUAUUAUUGCAAUUUUUUUUUGUAAAAGUAGCAGUUUGGUA`: “RBNS enrichment (R)” 0.842.
`ACUAAAACUUUGCAGUAAAAUACCUAUUUCUACAAAGCAAGGUUUGCCUGCCUCGGUUGGGGAAACCUAGUGGUUUUGUCACACUAGUCGAUGUAUGAUGUUAGUGUUGU`: “RBNS enrichment (R)” 0.344.
`CUGCUAUUCAUUAAAACUUGUAUUCCAGUCUUGCCAGCUUAAGGAGAUCAAGAUAUUAAGAGGUAUCCUUGAUUUAUUUUCCAGUAUUCAGUAGUAAAAUUUUCCUGUCC` — result for “RBNS enrichment (R)”: 0.868.
`AGUAUUUUGAGUGUUUUUCAAAUGUUUGUACGUUAUCUUGCACUGCUCUAAUAAAAAUGAAAGCUCUCUGACAAGAAAUAGUUCUGGAUGGUUUGAAGAUCUGCGGGGAA`: “RBNS enrichment (R)” 0.714.
`CACAAAGGCCUUGAAGAGUGGACAUUCCCAGGUCCCUGGCACCUUCCCUUGAGCCAGCUCCAUUGCUACUUAUUCAUGUGACUGAAGCUGACCACAGGCAGCUGGCAGGU` — result for “RBNS enrichment (R)”: 0.34.
For `UGUUAGUCUCUGAGGAACAGUGCAACUCCUUCGAACAUGAUUUAGAAAGAGGGCAUUCAUGCAUAGAAUUCUGAGGCCUGGCACAACUCCCUGCCCAGGAGCACAGCUUG`, “RBNS enrichment (R)” read 0.76.
For `CUGCUGAAGACAUUCGUAUUAUGUGUUAGAUGCUUUAAUGUUUGCAAAAUCUGUCUUGUGAAUGGACUGUCAGCUGUUAAACUGUUCCUGUUUUGAAGUGCUAUUACCUU`, “RBNS enrichment (R)” read 7.24.
